Results pooled from the literature.
Lines come from different studies, so protocols differ.

Under “mean daily dermal uptake”, `CC(C)(C)c1cc(-n2nc3ccccc3n2)c(O)c(C(C)(C)C)c1` is recorded as 1.29 ng/kg body weight/day (exposure assessment; human, age 16-21 years; sunscreen).
`COc1cc2c(Oc3ccc4[nH]c(C)cc4c3F)ccnc2cc1OCC1(N)CC1`: “grade 3 Nausea” 0% (paediatric recurrent refractory sarcoma; 10 mg).
`COc1ncnn2ccc(-c3cnc4nc(C)n(Cc5nnc([C@@H](C)F)o5)c4c3)c12` — result for “patients with malaise”: 0% (human; oral, dose not given, grade 4).
For `C[C@H]1CN(C(=O)CC#N)[C@]12CCN(c1ncnc3[nH]ccc13)C2`, “Cmax at NOAEL” read 390 ng/mL (rat male; oral, 3 mg/kg repeated daily, 6 months, repeated-dose toxicity study).
`CC(C)(O)c1cc(Nc2cc(Oc3cn(C4CC4)nc3C3CCOCC3)ccn2)ccn1` — result for “treatment-related adverse events”: 0% (Anemia; patients with advanced cancer, Japanese cohort; oral, dose not given, grade ≥3).
`COc1cc(C(=O)NC2CCN(C)CC2)c(F)cc1Nc1ncc(C(F)(F)F)c(Oc2cccc3c2C(=O)N(C)C3)n1`: “mean residence time at steady state” 31.9 h (human patients, plasma; oral, 300 mg once daily repeated, geometric mean).
`O=[N+]([O-])NC1=NCCN1Cc1ccc(Cl)nc1` — result for “dose fraction in skim milk”: 96.3% (whole cow milk; 2000 nM nominal).
`CC(=O)c1c(C)c2cnc(Nc3ccc(C4CCN(CCS(C)(=O)=O)CC4)cn3)nc2n(C2CCCC2)c1=O` — result for “patients with TEAE grade ≥3”: 100% (HR+/HER2- advanced breast cancer patients; oral, 100 mg).
`COc1ccc2c(c1)CN(C(=O)CCN1CCC(Cc3ccccc3)CC1)CC[S@@+]2[O-]`: “extrasystoles per hour” “no effect” (dogs, chronic AV block; intravenous, 1 and 3 mg/kg).
The related SAE of `CNC(=O)c1cc(Oc2ccc(NC(=O)Nc3cc(C(C)(C)C)nn3-c3ccc4ncccc4c3)c(F)c2)ccn1` is reported as 3% (pulmonary oedema, NCI CTC v3.0; human patients; oral, 150 mg twice daily, tablet, dose at onset).
For `C=CCNc1c(O)cc2c(O)c1C[C@@H](C)C[C@H](OC)[C@H](O)[C@@H](C)/C=C(\C)[C@H](OC(N)=O)[C@@H](OC)/C=C\C=C(/C)C(=O)N2`, “patients with nausea TEAE” read 33% (unresectable or metastatic STS, GIST, other; intravenous, 225 mg/m^2).
`C=CC(=O)N1CC[C@H](n2nc(C#Cc3cc(OC)cc(OC)c3)c3c(N)ncnc32)C1` — result for “hyperphosphatemia incidence, grade ≥3”: 4.7% (human patients, all; oral, dose not given, QD regimen, adverse drug reaction).
Under “median placental accumulation”, `CCC[C@H]1CC[C@H](c2ccc(-c3ccc(F)cc3)cc2)CC1` is recorded as 190 ng/g (rat, placenta; 5000 ng/mL in perfusate, high dose, mixture of 21 LCMs).
Under “treatment-emergent adverse events”, `CCS(=O)(=O)Nc1ccc(Oc2ccc(F)cc2F)c(-c2cn(C)c(=O)c3[nH]ccc23)c1` is recorded as 0% (fatal septic shock; human, relapsed/refractory AML; oral, dose not given).

Repeated from above:
`COc1ccc2c(c1)CN(C(=O)CCN1CCC(Cc3ccccc3)CC1)CC[S@@+]2[O-]`: “extrasystoles per hour” “no effect” (dogs, chronic AV block; intravenous, 1 and 3 mg/kg).
`COc1cc(C(=O)NC2CCN(C)CC2)c(F)cc1Nc1ncc(C(F)(F)F)c(Oc2cccc3c2C(=O)N(C)C3)n1`: “mean residence time at steady state” 31.9 h (human patients, plasma; oral, 300 mg once daily repeated, geometric mean).
